Assay results collected from several papers.
Every numbered part comes from another study and shows a few of its results, in no order.

Set 1 — method: RNA Bind-n-Seq; molecule type: RNA; matrix: in vitro; concentration: not given; relative to: input RNA pool; direction: higher = stronger binding
Target: RING finger protein unkempt homolog, zinc fingers 1-6, GST-SBP tag (UNK, Homo sapiens, UniProt Q9C0B0, residues 30-357)
Notes: RNA with constant flanks, human and mouse sites, ends assumed
Constant ends, left off below: GGGAGUUCUACAGUCCGACGAUC … CAACAGAGGAUUGAGCAUCA
Residues (chain): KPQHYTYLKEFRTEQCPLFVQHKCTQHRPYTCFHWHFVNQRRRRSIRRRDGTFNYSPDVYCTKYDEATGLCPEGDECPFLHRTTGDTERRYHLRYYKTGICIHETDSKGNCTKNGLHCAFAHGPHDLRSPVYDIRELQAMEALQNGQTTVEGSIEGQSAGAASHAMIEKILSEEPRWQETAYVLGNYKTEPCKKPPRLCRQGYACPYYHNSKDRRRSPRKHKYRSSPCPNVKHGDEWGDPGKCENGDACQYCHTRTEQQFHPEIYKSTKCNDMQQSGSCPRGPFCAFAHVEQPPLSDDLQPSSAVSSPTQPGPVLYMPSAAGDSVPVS
Sequence	bound/input enrichment
UUGGCCAGUCAGUAUUCUGCUAAUGAAAUGUAUGCAGAAGCACUGAACACAUACCAAGUUAUAGUGAAAAACAAGAUGUUUAGCAAUGCAGGAAGACUGAAAGUGAAUAUGGGAAAUAUU	0.624 ratio
GCCACCAGAUCCCAGAAACAUGACCCUUGCUGCCUACAAAGAGAAGAUGAAGGAGCUCCCGCUGGUGUCCUUGUUCUGCUCCUGCUUCCUGGCCGAUCCCCUGAAUAAGUCGUCCUACAA	0.335 ratio
AAGAUUGGGCUUAUUCAGUUUUGCUUAUCUGCUCCCAAAACAGACAUGGAUAAUCAAAUAGUGGUUUCUGACUAUGCCCAGAUGGACCGAGUGCUGCGAGAAGAGAGAGCCUAUAUUUUA	0.494 ratio
AUUCCGAUUAUGGACACCGGUGAAAACCCAGAGGUUCCCUUCCCCCGGGACAUGAUUGACUUAGAGGCCAAUUUUGAGAAGAUUGAAAAUGAACUGAAGGAAAUCAACACAAACCAGGAA	0.0916 ratio
AAUGUAGAAUGGGAAACUAAUAGAGAUGAUUCUGACAAUGGAGAUAUUAAUUAUGAUUAUGUUCAUGAAUUGUCAUUGGAAAUGAAGCGUCAGAAGAUACAGAGGGAAUUAAUGAAGCUG	1.51 ratio

Set 2 — read-out: enzyme activity; mode: inhibitor; concentration: 20 µM
Target: Replicase polyprotein 1ab, polymerase (rep, Severe acute respiratory syndrome coronavirus 2, UniProt P0DTD1)
Structure (SMILES)	inhibition [%]
C[C@@H]1O[C@@H](O[C@H]2[C@H](Oc3cc(O)c(C(=O)CCc4ccc(O)cc4)c(O)c3)O[C@H](CO)[C@@H](O)[C@@H]2O)[C@H](O)[C@H](O)[C@H]1O	1.72
O=C(C[C@H]1NCCC[C@@H]1O)Cn1cnc2cc(Br)c(Cl)cc2c1=O (racemic)	-8.79
NCC(=O)O	-4.29
Oc1cc2c(cc1O)C(c1ccccc1)CNCC2 (centres unmarked)	-23.5
O=c1[nH]c2cc(Cl)ccc2c(O)c1-c1cccc(Oc2ccccc2)c1	3.35
Nc1nc(N)nc(-c2cc(Cl)ccc2Cl)n1	-1.6
COc1ccc(/C=C\c2cc(OC)c(OC)c(OC)c2)cc1OP(=O)(O)O	1.86
CC(C)(CO)CCCCCCC(C)(C)CO	8.55
Cc1c(O)cccc1C(=O)N[C@@H](CSc1ccccc1)[C@H](O)CN1C[C@H]2CCCC[C@H]2C[C@H]1C(=O)NC(C)(C)C	5.07
CCOCOC[C@H](C[C@H](C)C(=O)NO)NC(=O)c1ccc(Oc2ccccc2)cc1	-6.98
CCCCC(=O)O[C@H]1CC[C@H]2[C@@H]3CCc4cc(O)ccc4[C@H]3CC[C@]12C	7.44
CCN(CC)CCOCCOC(=O)C(CC)(CC)c1ccccc1	-9.77
CC(CN(C)C)CN1c2ccccc2Sc2ccc(C#N)cc21 (centres unmarked)	0.89
CC1(C)[C@@H]2CC[C@@]1(C)C(=O)C2	1.49
Cc1cc(I)ccc1Nc1c(C(=O)NOCC2CC2)cc(F)c(F)c1F	5.21
O=C(Nc1ccc(C(O)(C(F)(F)F)C(F)(F)F)cc1)c1ccc(C(F)(F)F)cc1	18.1
NS(=O)(=O)NCCNc1nonc1/C(=N/O)Nc1ccc(F)c(Br)c1	1.64
CC(C(=O)O)c1ccc2c(c1)Cc1ccccc1-2 (centres unmarked)	-1.89
CC(C)(N)Cc1ccccc1	3
C[C@]12CC[C@H]3C(=CCc4cc(O)ccc43)[C@@H]1CCC2=O	-1.76
CC1(C)O[C@@H]2C[C@H]3[C@@H]4CCC5=CC(=O)C=C[C@]5(C)[C@H]4[C@@H](O)C[C@]3(C)[C@]2(C(=O)CO)O1	-8.43
O=C(/C=C/c1ccccc1)NC(NC(=S)Nc1cccc2cccnc12)C(Cl)(Cl)Cl (centres unmarked)	3.31
CC[C@@H](CO)NC(=O)[C@@H]1C=C2c3cccc4c3c(cn4C)C[C@H]2N(C)C1	6.71
O=C(O)c1ccccc1NCCc1ccccc1	3.3
CC(=O)[C@H]1CC[C@H]2[C@@H]3CC=C4C[C@@H](OC(=O)CCC(=O)O)CC[C@]4(C)[C@H]3CC[C@]12C	-2.02

Set 3 — method: universal PBM; molecule type: double-stranded DNA, one strand shown; matrix: in vitro; concentration: 600 nM; direction: higher = stronger binding
Target: Sal-like protein 4, full length isoform A (SALL4, Homo sapiens, UniProt Q9UJQ4, residues 1-1053)
Sequence of UniProt Q9UJQ4 (whole entry, looked up): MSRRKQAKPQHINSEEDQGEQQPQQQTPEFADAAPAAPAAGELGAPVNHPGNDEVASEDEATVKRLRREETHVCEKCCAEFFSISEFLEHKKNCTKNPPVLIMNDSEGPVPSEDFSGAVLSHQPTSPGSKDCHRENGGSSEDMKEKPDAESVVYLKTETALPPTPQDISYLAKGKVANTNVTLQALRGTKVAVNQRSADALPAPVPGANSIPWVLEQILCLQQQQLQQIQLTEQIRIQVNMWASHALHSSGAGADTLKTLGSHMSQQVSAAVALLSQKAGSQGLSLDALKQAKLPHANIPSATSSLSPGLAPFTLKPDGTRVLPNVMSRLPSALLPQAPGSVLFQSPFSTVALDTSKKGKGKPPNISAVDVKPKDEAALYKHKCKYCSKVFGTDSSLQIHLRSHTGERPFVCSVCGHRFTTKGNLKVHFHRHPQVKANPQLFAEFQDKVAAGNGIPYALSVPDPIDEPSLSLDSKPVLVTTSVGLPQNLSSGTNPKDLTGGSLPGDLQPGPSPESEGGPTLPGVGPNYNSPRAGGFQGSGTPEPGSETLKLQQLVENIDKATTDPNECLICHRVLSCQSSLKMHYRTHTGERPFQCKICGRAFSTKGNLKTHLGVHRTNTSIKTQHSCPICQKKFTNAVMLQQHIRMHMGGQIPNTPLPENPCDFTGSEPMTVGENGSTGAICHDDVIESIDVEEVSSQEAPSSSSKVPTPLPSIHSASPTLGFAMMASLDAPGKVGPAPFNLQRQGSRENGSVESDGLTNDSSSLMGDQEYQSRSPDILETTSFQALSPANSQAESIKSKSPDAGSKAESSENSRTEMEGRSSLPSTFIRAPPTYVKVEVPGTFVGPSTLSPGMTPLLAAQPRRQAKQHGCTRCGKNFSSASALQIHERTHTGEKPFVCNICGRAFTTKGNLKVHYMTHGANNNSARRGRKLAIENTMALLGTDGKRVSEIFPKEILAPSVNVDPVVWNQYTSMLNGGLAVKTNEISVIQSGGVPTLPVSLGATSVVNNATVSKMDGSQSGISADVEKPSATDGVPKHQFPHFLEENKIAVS
Notes: 8-mer, flanks averaged, mean of replicates
Sequence	E-score
GAGTTCCC	-0.262
CTTTTGAA	0.079
GGTATGAA	0.226
CTAGCGGC	-0.304
ACCAATTC	0.0154
AGGGAGAA	-0.0863
CCAACACG	-0.118
CCAAACGG	-0.326

Set 4 — cell line: HEK-293T; read-out: pseudovirus infection; organism: VSV pseudotyped with SARS-CoV-2 spike; concentration: 10 µM; time: 16 h; relative to: vehicle-treated
Structure (SMILES)	GFP-positive cells
COc1ccc(C[C@@H]2c3cc(OC)c(OC)cc3CC[N@+]2(C)CCC(=O)OCCCCCOC(=O)CC[N@@+]2(C)CCc3cc(OC)c(OC)cc3[C@H]2Cc2ccc(OC)c(OC)c2)cc1OC	85.8%
Cn1c(=O)c2[nH]cnc2n(C)c1=O	106%
Cc1cc(/C=C/C#N)cc(C)c1Nc1ccnc(Nc2ccc(C#N)cc2)n1	0.13%
CN(C)CCc1c[nH]c2ccc(Cn3cncn3)cc12	107%

Set 5 — method: RNA Bind-n-Seq; molecule type: RNA; matrix: in vitro; concentration: 365 nM; relative to: no-protein control; direction: higher = stronger binding
Target: RNA binding protein fox-1 homolog 2, RRM domain, GST-SBP tag (RBFOX2, Homo sapiens, UniProt O43251-10, residues 100-194)
Notes: natural RNA segment, single round, ends assumed
Constant ends, left off below: GGGAGUUCUACAGUCCGACGAUC … UGGAAUUCUCGGGUGCCAA
Sequence	RBNS enrichment (R)
CUUUGAGAUCAGCAGGGGGCUCGGAUCCAGCCCUAAGAGACUUGGGUGGACCCCCAUGAGUCAAUGGAGGGCAGACGGCUCUCCCCCUUAAAGCUGUUCCCUGGGGGAUG	0.498
UUCAGUUGUUUUUUUGUAAAAUAUAGUAGAACGGUUGUAACUGAUACUGGCCAAAAUCAAUGUUAUUCCAUAUUUUAUUUUUUCUAUUAAAUUAACCUAAGUUCCUGUUU	1.25
ACUCGCCAAGUAAGGCUUCGUGCAUAGUGUCUUCAUGUCGCGUAUAGUUGAGCGCGUUCUUAGCAGUUGGCUUCAUGGACAACUCAUUAGUGUUUUGACUUUUCUUACCC	0.382
CUCUGCCUCCUUCUCUCUGCCUGGUUCUUCAGAAGGCAGUGAAUGGGUCAUAACUGGGACUCCAUCUUUGCUGGGGAAAGUCUCCCACCUAGGGAAUGGUUACCACUCCA	1.07
UUGUACUUGCAUGACAUGGAUAUCUGGUAUCUGAGGACAAGUUCAUUCUUGUGUAUUUAAUAACAAAGGUGGCCCUCUUCAUGUCUGCUCCUCCCUACAGGCACUGUCUG	1
AGUAUUAAAAAUUGGGUCUAUGACAUAUUGUCCAAAAGGAAUGCUGUUCUUAAAGCAUUAUUUACAGUAGGAACUGGGGAGUAAAUCUGUUCCCUACAGUUUGCUGCUGA	0.389
CAUCCUGUGAGUUUGAGCUUCAGGAAACAUGAGUAAAAGUAUAUGUAAUGUAUAUAGUCGUAUAUGUAUUCUAGCAAGAAAAACAUAUUUAUUUUGACAAAGGGGAACAC	0.47
UGCUGCUGGGUGUGCAGCUGCCACAGACUCCAAAGGCGUAGAAGUUUGUGCCAACACACGGAGUCAUUCUGGCUCUCUGCUGAGGCCCCUGUUUUCUGGCAGGUGCCCUC	0.558

Set 6 — read-out: enzyme activity
Compound: CC(CN1CC(=O)NC(=O)C1)N1CC(=O)NC(=O)C1 (centres unmarked)
rep main protease: Replicase polyprotein 1ab, main protease (rep, Severe acute respiratory syndrome coronavirus 2, UniProt P0DTD1)
target	mode	concentration	notes	inhibition [%]
rep main protease	inhibitor	20 µM	hit confirmation	100
rep main protease	inhibitor	20 µM	primary screen	101
Replicase polyprotein 1ab, 3C-like proteinase (rep, Middle East respiratory syndrome-related coronavirus, UniProt K9N7C7)	–	10 µM	–	7

For quick reference, copied from above (set 2):
Structure (SMILES)	inhibition [%]
CCN(CC)CCOCCOC(=O)C(CC)(CC)c1ccccc1	-9.77
CC(CN(C)C)CN1c2ccccc2Sc2ccc(C#N)cc21 (centres unmarked)	0.89
CC1(C)[C@@H]2CC[C@@]1(C)C(=O)C2	1.49
Cc1cc(I)ccc1Nc1c(C(=O)NOCC2CC2)cc(F)c(F)c1F	5.21
O=C(Nc1ccc(C(O)(C(F)(F)F)C(F)(F)F)cc1)c1ccc(C(F)(F)F)cc1	18.1
NS(=O)(=O)NCCNc1nonc1/C(=N/O)Nc1ccc(F)c(Br)c1	1.64
CC(C(=O)O)c1ccc2c(c1)Cc1ccccc1-2 (centres unmarked)	-1.89
